# Published values gathered from unrelated publications.
# TSSK1B: Testis-specific serine/threonine-protein kinase 1 (TSSK1B, Homo sapiens, UniProt Q9BXA7)
# Chain of UniProt Q9BXA7 (whole entry, looked up): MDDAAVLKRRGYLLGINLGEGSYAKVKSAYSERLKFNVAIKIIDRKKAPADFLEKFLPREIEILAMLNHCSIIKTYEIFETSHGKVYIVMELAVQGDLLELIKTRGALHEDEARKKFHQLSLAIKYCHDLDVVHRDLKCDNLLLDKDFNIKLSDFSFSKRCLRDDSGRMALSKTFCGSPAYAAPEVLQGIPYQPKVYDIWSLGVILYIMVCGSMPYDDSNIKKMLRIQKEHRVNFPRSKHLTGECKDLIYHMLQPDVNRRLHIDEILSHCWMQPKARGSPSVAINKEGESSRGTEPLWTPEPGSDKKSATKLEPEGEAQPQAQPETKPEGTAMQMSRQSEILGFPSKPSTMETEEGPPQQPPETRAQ
# AAK1: AP2-associated protein kinase 1 (AAK1, Homo sapiens, UniProt Q2M2I8)
# Chain of UniProt Q2M2I8 (whole entry, looked up): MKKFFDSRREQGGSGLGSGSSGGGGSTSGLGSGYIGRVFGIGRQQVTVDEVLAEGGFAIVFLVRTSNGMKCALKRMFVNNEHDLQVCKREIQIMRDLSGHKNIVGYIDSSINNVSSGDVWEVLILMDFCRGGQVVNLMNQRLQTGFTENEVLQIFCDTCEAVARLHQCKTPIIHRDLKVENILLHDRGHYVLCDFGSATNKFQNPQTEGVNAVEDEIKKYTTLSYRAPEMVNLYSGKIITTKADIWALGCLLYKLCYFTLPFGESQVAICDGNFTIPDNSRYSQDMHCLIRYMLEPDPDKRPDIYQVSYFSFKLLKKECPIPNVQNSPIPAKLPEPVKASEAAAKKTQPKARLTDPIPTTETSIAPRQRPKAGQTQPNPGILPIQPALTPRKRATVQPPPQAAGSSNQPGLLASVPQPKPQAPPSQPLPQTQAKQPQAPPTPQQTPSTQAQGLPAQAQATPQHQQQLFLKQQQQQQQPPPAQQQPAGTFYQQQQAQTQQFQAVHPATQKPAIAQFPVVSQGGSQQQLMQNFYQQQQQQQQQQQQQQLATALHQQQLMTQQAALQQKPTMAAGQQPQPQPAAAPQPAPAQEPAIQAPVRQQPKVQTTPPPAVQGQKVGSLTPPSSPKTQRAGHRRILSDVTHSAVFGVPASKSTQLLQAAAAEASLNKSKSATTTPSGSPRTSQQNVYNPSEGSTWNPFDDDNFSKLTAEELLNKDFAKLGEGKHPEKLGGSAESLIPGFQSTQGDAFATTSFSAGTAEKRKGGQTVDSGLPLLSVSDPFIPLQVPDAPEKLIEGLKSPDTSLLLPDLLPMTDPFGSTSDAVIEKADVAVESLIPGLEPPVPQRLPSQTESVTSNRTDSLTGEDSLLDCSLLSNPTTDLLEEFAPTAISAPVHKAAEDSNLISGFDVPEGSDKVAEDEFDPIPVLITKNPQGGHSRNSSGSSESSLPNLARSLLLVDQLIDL
# RET: Proto-oncogene tyrosine-protein kinase receptor Ret (RET, Homo sapiens, UniProt P07949)
# Chain of UniProt P07949 (whole entry, looked up): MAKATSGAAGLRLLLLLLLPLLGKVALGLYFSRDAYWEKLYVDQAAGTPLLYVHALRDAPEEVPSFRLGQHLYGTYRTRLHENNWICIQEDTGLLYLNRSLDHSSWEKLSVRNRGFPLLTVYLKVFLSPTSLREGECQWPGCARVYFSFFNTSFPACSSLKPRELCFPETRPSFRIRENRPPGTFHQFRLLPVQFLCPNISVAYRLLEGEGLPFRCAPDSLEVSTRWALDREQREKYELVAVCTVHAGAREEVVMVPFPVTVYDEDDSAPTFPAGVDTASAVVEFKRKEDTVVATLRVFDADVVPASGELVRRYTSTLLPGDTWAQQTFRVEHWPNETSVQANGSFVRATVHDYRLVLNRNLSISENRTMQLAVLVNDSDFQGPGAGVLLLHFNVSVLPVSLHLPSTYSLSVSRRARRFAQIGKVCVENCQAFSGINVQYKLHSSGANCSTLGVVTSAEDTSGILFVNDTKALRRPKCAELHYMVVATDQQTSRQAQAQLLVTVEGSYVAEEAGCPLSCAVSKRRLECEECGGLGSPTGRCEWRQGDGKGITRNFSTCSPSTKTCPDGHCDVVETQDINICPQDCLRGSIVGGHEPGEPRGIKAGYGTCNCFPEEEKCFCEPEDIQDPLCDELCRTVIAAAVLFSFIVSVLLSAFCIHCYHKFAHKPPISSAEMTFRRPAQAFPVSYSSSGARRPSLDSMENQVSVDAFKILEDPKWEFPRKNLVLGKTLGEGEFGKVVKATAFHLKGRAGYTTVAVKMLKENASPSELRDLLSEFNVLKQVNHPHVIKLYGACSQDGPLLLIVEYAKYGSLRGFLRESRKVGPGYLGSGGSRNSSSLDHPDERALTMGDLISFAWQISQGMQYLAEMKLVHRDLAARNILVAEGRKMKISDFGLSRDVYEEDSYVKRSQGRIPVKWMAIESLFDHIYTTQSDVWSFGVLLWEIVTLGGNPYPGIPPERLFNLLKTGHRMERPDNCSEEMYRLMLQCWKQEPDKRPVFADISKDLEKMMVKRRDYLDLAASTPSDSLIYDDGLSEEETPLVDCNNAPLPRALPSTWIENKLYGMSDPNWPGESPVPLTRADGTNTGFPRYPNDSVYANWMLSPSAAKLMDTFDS
# SLC2A1: Solute carrier family 2, facilitated glucose transporter member 1 (SLC2A1, Homo sapiens, UniProt P11166)
# Chain of UniProt P11166 (whole entry, looked up): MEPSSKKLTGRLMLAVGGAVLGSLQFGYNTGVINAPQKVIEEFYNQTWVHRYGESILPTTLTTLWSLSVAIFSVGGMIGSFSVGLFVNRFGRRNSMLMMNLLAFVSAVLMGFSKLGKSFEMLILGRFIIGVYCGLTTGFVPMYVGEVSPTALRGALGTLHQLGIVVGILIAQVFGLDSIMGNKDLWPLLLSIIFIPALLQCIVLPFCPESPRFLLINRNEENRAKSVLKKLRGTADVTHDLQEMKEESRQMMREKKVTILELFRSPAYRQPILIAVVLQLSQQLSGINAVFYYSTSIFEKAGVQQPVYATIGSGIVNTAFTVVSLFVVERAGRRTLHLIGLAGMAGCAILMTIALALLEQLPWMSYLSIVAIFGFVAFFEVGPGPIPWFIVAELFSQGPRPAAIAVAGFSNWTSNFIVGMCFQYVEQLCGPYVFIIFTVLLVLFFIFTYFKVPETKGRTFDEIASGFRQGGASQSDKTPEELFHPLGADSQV
# MPO: Myeloperoxidase (MPO, Homo sapiens, UniProt P05164)
# Chain of UniProt P05164 (whole entry, looked up): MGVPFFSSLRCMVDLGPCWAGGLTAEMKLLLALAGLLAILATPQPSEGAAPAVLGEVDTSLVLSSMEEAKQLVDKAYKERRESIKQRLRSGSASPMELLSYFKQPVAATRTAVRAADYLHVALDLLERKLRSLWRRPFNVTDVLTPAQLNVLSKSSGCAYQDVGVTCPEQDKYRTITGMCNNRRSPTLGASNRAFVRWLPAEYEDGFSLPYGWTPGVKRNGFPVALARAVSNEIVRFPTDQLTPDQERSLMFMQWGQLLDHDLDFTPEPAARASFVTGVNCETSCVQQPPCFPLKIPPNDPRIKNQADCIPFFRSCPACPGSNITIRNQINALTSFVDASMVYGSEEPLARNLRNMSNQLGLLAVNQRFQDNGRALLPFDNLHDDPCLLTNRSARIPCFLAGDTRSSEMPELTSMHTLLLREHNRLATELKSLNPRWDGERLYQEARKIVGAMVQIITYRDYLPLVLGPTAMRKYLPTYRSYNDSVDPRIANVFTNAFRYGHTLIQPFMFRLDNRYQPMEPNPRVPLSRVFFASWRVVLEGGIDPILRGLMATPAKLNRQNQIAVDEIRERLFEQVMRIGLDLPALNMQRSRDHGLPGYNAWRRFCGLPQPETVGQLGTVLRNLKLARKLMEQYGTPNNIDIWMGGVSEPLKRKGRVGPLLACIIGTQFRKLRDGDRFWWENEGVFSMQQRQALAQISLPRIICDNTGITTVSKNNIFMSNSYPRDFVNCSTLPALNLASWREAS
# Chain of UniProt Q9NYL2 (whole entry, looked up): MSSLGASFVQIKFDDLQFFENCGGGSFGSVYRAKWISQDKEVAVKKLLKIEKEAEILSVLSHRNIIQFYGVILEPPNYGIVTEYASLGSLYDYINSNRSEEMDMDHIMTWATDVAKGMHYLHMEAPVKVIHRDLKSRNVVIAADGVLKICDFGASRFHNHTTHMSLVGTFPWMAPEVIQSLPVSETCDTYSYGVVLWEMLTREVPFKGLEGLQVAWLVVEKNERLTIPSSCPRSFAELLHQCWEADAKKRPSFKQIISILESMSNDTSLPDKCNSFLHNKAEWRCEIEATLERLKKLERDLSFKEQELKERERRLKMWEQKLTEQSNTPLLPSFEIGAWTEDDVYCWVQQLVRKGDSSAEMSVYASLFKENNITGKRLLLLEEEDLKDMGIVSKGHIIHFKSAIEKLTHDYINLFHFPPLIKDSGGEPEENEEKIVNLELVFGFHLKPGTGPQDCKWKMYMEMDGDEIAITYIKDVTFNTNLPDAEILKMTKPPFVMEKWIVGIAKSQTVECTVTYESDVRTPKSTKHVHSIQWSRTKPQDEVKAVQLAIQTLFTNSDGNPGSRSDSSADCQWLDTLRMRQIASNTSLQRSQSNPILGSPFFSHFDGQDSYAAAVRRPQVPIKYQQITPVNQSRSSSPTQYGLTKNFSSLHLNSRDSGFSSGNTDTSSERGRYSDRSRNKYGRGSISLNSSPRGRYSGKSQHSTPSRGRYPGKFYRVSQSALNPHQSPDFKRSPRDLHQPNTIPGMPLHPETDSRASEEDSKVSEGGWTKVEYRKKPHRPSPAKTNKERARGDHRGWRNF
# Chain of UniProt Q96PN8 (whole entry, looked up): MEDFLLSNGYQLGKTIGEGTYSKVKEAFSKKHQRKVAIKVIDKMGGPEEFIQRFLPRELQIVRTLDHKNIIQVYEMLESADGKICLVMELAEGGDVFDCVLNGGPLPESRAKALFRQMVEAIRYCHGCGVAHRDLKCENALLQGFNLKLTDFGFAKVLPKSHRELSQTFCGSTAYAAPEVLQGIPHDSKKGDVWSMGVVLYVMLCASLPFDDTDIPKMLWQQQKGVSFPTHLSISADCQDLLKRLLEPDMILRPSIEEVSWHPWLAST
# Chain of UniProt Q00535 (whole entry, looked up): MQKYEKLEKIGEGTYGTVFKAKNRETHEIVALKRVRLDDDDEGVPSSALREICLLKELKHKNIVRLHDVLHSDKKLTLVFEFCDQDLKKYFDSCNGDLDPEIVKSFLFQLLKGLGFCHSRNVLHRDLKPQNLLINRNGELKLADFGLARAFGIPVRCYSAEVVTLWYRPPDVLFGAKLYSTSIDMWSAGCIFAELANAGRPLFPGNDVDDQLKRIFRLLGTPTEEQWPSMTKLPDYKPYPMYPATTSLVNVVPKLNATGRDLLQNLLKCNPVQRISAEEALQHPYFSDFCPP
SMILES,tested on,test,system,conditions,quantity,value
Cc1cccc(N(O)N=Nc2ccc(S(=O)(=O)Nc3onc(C)c3C)cc2)c1,,"DPPH scavenging, absorbance",,180 µg/mL,inhibition,28.9%
CC(C)(O)[C@H]1CC[C@H](Nc2ccc3ncc(-c4cccc(C(F)(F)F)c4)n3n2)CC1,TSSK1B,"enzyme activity, inhibitor",,1 µM,remaining activity,96.8%
CN1CCc2cc(Nc3ncc(C4CC4)c(NCCCNC(=O)C4CCC4)n3)ccc2C1,AAK1,"enzyme activity, inhibitor, radiometric",,1 µM,remaining activity,4%
O=C(NCc1cccnc1-n1cnc2ccccc21)c1ccc2[nH]c(=O)[nH]c2c1,RET,"enzyme activity, inhibitor, radiometric",,0.1 µM,remaining activity,102%
Cc1nn(CC(F)(F)F)cc1Nc1ncc(Br)c(NCCCNC(=O)C2CCC2)n1,AAK1,"enzyme activity, inhibitor, radiometric",,1 µM,remaining activity,7%
CNc1ncc2c(/C=C/C(=O)N3CCC(OC)CC3)nn(Cc3cccc(C(F)(F)F)c3)c2n1,"NEK4 (Homo sapiens, UniProt P51957)","enzyme activity, inhibitor, radiometric",,1 µM,remaining activity,95%
COc1ccc(-c2ccc(/C(C)=N/O)c(O)c2Cl)cc1,SLC2A1,"transporter uptake, inhibitor",NCI-H1299,30 µM,remaining activity,85%
CCCCC(=O)Nc1ccc(-c2ccc3ncn(CCC)c(=O)c3c2)cn1,"TRPM6 (Homo sapiens, UniProt Q9BX84)","binding, competition with immobilised ligand",,0.5 µM,remaining binding,100%
COc1cc(-c2cncc3c2CN(C)Cc2cc(N4CCNCC4)ccc2-3)cc(OC)c1OC,"TSSK3 (Homo sapiens, UniProt Q96PN8)","enzyme activity, inhibitor",,1 µM,remaining activity,102%
CC[C@H](C)[C@H](NC(=O)[C@H](CCC(N)=O)NC(=O)[C@@H](NC(=O)[C@H](CCSC)NC(=O)[C@H](CCCCN)NC(=O)[C@H](CO)NC(=O)[C@@H](NC(=O)[C@H](CCSC)NC(=O)[C@H](CC(C)C)NC(=O)[C@H](CC(N)=O)NC(=O)[C@@H](NC(=O)[C@@H](NC(=O)[C@H](CO)NC(=O)[C@H](CC(C)C)NC(=O)[C@H](C)NC(=O)[C@H](CCCNC(=N)N)NC(=O)[C@H](CCC(=O)O)NC(=O)[C@H](Cc1ccc(O)cc1)NC(=O)[C@H](Cc1ccccc1)NC(=O)[C@H](C)NC(=O)[C@H](CC(N)=O)NC(=O)[C@@H](N)CCCCN)[C@@H](C)CC)[C@@H](C)CC)[C@@H](C)O)C(C)C)C(=O)N[C@@H](CC(N)=O)C(=O)N[C@H](C(=O)O)C(C)C,"Cyclin-dependent kinase 5, with p35 (CDK5, Homo sapiens, UniProt Q00535)","enzyme activity, inhibitor, radiometric",,"250 µM, 20 min",remaining activity,27%
CC(C)OCCn1c(=S)[nH]c(=O)c2[nH]ccc21,MPO,"enzyme activity, inhibitor",,0.45 µM,remaining activity,43.7%
C/C(=N\O)c1ccc(-c2ccc(F)cc2)c(Cl)c1O,SLC2A1,"transporter uptake, inhibitor, radiometric",NCI-H1299,30 µM,remaining activity,102%
CC(=O)c1cccc(NC(=O)Nc2cc3c(cc2Oc2ccccc2)n(C)c(=O)n3C)c1,RET,"enzyme activity, inhibitor, radiometric",,10 µM,remaining activity,99.7%
O=C(Nc1ccccc1)Nc1ccc(Oc2nnc(-c3ccc(Cl)cc3)c3ccccc23)cc1,HepG2,"cell growth or viability, MTT",,"1.25 µM, 24 h",viability,6.03%
Cc1ccc(NC(=O)Nc2ccc(Nc3cc(-n4ccnc4)nc(C)n3)cc2)c(C)c1,RET,"enzyme activity, inhibitor, radiometric",,0.1 µM,remaining activity,95.5%
CC[C@H](C)[C@H](NC(=O)[C@H](CCC(N)=O)NC(=O)[C@H](CC(C)C)NC(=O)[C@H](CCSC)NC(=O)[C@H](CCCCN)NC(=O)[C@H](CO)NC(=O)[C@H](CO)NC(=O)[C@H](CCSC)NC(=O)[C@H](CC(C)C)NC(=O)[C@H](CC(N)=O)NC(=O)[C@@H](NC(=O)[C@@H](NC(=O)[C@H](CO)NC(=O)[C@H](CC(C)C)NC(=O)[C@H](CS)NC(=O)[C@H](CCCNC(=N)N)NC(=O)[C@H](CC(=O)O)NC(=O)[C@H](Cc1c[nH]c2ccccc12)NC(=O)[C@H](Cc1ccccc1)NC(=O)[C@H](C)NC(=O)[C@H](CCC(=O)O)NC(=O)[C@@H](N)CCCCN)C(C)C)[C@@H](C)CC)C(=O)N[C@@H](CC(N)=O)C(=O)N[C@@H](C)C(=O)O,"MAPK3 (Homo sapiens, UniProt P27361)","enzyme activity, inhibitor, radiometric",,"50 µM, 20 min",remaining activity,97%
Cc1cc([C@@H](C)Nc2ccccc2C(=O)O)c2nc(N3CCC(F)(F)CC3)c(C#N)c(=O)n2c1,TSSK1B,"binding, competition with immobilised ligand",,10 µM,remaining binding,71%
CCOc1ccccc1NC(=O)Nc1cc(OC)c2nc(NC(=O)c3ccccc3)sc2c1,RET,"enzyme activity, inhibitor, radiometric",,10 µM,remaining activity,101%
O=c1nc(N2CCN(CC3CCCCC3)CC2)sc2c([N+](=O)[O-])cc(C(F)(F)F)cc12,,,"CD-1 mouse, lung","intravenous, 10 mg/kg, 30 min",concentration,2700 ng/mL
COc1cccc(Nc2nc(C)c(C(=O)Nc3ccc4c(c3)OCO4)s2)c1,RET,"enzyme activity, inhibitor, radiometric",,10 µM,remaining activity,55.3%
COc1ccc(Cl)cc1-c1cc(=O)[nH]c(=S)n1CC(N)=O,MPO,"enzyme activity, inhibitor",,1.25 µM,remaining activity,44.6%
C/C(=N\O)c1ccc(-c2cccc(O)c2)c(Cl)c1O,SLC2A1,"transporter uptake, inhibitor, radiometric",NCI-H1299,30 µM,remaining activity,16%
COc1ccc(Cl)cc1NC(=O)Nc1ccc2nc(NC(=O)c3ccccc3)sc2c1,RET,"enzyme activity, inhibitor, radiometric",,10 µM,remaining activity,103%
O=C1O[C@H]([C@@H](O)CO)C(O)=C1O,,"DPPH scavenging, absorbance",,120 µg/mL,inhibition,64.3%
COc1cccc(OC)c1-c1cc(C(=O)NC2(C(=O)O)C3CC4CC(C3)CC2C4)nn1-c1ccc(C(=O)N(C)CCCN(C)CCCN(C)C(=O)CN2CCN(CC(=O)[O-])CCN(CC(=O)[O-])CCN(CC(=O)[O-])CC2)cc1C(C)C.[177Lu+3] (stereo not shown),HT-29 tumour model,,"host not given, stomach","4 h, tumour-bearing",tracer uptake,1 %ID/g
NC/C(=C\F)COc1cccc(Cn2c(=S)[nH]c(=O)c3[nH]cnc32)c1,MPO,"enzyme activity, inhibitor",,2.5 µM,remaining activity,3.8%
N=C(N)c1ccc(-c2ccc(-c3ccc(OCCCCCCCCOc4ccc(-c5ccc(-c6ccc(C(=N)N)cc6)o5)cc4)cc3)o2)cc1,"PRMT5 (Homo sapiens, UniProt O14744)","enzyme activity, inhibitor, radiometric",,20 µM,remaining activity,12.8%
Nc1nc(SCC(=O)Nc2ccc3c(c2)OCO3)[nH]c(=O)c1NC(=O)c1ccc(F)c(F)c1,RET,"enzyme activity, inhibitor, radiometric",,10 µM,remaining activity,28.1%
Cc1nn(CC(F)(F)F)cc1Nc1nccc(NCCc2cnc[nH]2)n1,AAK1,"enzyme activity, inhibitor, radiometric",,1 µM,remaining activity,82%
C=CC(=O)N1CCC(COCC(=O)N2CCN(c3nc(-c4cnc(N)nc4C(F)F)nc(N4CCOC[C@@H]4C)n3)CC2)CC1,"MAP3K20 (Homo sapiens, UniProt Q9NYL2)","binding, competition with immobilised ligand",,1 µM,remaining binding,100%
CCCOc1ccc(OC)c(F)c1C(=O)c1ccc(C(=O)N[C@@H]2CNC[C@H]2NC(=O)c2ccc3[nH]ncc3c2)cc1,"PRKX (Homo sapiens, UniProt P51817)","enzyme activity, inhibitor",,10 µM,remaining activity,1%
Cc1cc(NC(=O)Nc2ccc(F)cc2)cc2sc(NC(=O)c3ccccc3)nc12,RET,"enzyme activity, inhibitor, radiometric",,10 µM,remaining activity,78.8%
C1=C/COCc2cc(ccc2OCCN2CCCC2)Nc2nccc(n2)-c2cccc(c2)COC/1,"FLT3 (Homo sapiens, UniProt P36888, ITD)",cell-free assay,,0.1 µM,remaining signal,4.3%
COc1cccc(-c2n[nH]c(SCc3ccccn3)n2)c1OC,,,"male Sprague-Dawley rat, plasma","oral, 100 mg/kg, 4 h, single dose",concentration,10400 ng/mL

# A few entries again:
SMILES,tested on,test,system,conditions,quantity,value
Nc1nc(SCC(=O)Nc2ccc3c(c2)OCO3)[nH]c(=O)c1NC(=O)c1ccc(F)c(F)c1,RET,"enzyme activity, inhibitor, radiometric",,10 µM,remaining activity,28.1%
Cc1nn(CC(F)(F)F)cc1Nc1nccc(NCCc2cnc[nH]2)n1,AAK1,"enzyme activity, inhibitor, radiometric",,1 µM,remaining activity,82%
